# Measurements from different studies.
# Protocols differ between the studies behind these lines. ± marks the error that the study gave.
# UniProt P00691, sequence (whole entry, looked up): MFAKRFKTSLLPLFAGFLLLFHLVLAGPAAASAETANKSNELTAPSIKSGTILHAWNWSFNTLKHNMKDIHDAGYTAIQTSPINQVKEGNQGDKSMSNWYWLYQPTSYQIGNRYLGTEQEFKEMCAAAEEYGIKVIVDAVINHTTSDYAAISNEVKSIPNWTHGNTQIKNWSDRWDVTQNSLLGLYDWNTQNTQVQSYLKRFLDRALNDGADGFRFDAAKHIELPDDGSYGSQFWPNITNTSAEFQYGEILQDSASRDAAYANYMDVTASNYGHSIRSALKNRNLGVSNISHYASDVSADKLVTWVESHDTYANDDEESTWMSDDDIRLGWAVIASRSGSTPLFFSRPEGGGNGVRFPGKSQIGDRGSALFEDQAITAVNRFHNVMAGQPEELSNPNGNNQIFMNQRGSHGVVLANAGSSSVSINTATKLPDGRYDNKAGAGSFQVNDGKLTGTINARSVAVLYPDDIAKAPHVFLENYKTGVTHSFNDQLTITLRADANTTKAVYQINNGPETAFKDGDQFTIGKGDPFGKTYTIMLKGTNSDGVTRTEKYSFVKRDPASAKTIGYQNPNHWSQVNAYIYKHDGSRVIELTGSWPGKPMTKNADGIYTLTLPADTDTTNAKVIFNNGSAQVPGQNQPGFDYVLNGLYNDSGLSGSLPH
# UniProt P46587, sequence (whole entry, looked up): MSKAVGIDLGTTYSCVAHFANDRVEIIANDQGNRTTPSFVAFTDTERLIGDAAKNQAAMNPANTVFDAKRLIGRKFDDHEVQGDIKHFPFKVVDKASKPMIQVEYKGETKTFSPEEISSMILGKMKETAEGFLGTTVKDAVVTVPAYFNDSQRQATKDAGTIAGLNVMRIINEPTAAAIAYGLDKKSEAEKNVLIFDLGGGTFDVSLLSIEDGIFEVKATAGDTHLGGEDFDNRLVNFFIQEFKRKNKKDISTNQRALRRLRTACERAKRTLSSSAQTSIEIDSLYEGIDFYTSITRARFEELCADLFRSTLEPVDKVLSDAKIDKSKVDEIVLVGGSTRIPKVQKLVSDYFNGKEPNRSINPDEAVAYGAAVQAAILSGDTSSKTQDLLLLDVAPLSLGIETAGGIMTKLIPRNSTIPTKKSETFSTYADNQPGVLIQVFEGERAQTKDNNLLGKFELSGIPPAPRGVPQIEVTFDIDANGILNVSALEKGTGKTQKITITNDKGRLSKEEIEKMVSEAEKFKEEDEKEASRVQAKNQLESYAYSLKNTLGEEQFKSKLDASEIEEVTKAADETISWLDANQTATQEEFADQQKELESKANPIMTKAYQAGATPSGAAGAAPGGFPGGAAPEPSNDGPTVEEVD
# UniProt P0ADV1, sequence (whole entry, looked up): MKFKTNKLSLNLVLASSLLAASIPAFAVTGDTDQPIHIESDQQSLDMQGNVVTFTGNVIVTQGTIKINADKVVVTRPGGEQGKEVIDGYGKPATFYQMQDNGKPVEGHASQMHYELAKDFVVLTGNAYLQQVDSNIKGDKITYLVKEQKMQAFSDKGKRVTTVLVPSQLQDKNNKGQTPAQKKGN
# UniProt P26038, sequence (whole entry, looked up): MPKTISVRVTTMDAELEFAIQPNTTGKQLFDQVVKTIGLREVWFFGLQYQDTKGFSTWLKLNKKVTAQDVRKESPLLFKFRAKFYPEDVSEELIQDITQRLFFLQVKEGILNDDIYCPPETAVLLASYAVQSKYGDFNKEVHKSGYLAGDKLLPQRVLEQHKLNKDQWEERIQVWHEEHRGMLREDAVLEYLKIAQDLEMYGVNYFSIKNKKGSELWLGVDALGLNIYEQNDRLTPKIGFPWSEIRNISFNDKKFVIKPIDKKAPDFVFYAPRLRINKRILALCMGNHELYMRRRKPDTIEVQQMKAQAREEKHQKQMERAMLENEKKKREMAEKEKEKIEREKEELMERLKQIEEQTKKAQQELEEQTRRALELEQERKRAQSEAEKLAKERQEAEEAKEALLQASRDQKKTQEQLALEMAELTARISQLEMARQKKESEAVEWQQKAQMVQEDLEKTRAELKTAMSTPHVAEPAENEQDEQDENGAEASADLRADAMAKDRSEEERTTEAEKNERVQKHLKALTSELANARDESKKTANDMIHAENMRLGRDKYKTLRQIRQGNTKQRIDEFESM
# UniProt A0A109QYD3, sequence (whole entry, looked up): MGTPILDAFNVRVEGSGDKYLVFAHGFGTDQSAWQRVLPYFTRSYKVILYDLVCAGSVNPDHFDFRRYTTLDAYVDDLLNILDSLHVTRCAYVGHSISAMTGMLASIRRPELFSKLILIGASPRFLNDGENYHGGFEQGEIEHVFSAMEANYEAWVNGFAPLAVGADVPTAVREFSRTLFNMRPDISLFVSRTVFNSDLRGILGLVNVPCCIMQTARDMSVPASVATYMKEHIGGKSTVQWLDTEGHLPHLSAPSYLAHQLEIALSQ
# UniProt P27467, sequence (whole entry, looked up): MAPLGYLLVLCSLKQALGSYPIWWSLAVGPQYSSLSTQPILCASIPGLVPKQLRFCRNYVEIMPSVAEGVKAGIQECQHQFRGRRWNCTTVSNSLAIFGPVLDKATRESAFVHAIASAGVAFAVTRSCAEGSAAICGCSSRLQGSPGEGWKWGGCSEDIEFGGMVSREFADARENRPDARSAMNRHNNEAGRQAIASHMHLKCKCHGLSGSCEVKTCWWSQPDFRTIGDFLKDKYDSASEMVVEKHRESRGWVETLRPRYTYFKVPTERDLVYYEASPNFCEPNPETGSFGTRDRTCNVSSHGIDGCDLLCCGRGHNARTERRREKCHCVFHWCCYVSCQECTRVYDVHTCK
# UniProt P38169, sequence (1-394, unmodified, looked up): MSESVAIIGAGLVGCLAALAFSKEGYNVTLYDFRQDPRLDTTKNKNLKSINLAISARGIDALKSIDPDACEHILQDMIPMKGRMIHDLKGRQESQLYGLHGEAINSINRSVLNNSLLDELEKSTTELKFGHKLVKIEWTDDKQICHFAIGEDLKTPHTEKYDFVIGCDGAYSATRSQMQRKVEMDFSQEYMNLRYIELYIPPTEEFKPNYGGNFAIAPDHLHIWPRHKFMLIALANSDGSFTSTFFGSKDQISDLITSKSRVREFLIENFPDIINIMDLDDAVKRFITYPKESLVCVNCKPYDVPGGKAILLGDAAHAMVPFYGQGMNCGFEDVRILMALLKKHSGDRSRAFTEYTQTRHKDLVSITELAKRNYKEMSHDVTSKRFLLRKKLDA
SMILES,target,assay,system,conditions,Kd
N=C(N)NCCC[C@H](NC(=O)[C@H](CS)NC(=O)[C@H](Cc1ccc(O)cc1)NC(=O)[C@H](Cc1c[nH]c2ccccc12)NC(=O)[C@H](CCCNC(=N)N)NC(=O)[C@H](Cc1c[nH]c2ccccc12)NC(=O)CNC(=O)[C@H](Cc1c[nH]cn1)NC(=O)CNC(=O)CN)C(N)=O,HCV IV RNA,fluorescein-labelled RNA titration,,1 mM TCEP,10000 ± 2000 nM
CC(C)C[C@H](NC(=O)[C@H](CCC(=O)O)NC(=O)[C@H](Cc1ccccc1)NC(=O)[C@H](C)NC(=O)[C@H](CC(=O)O)NC(=O)[C@@H]1CCCN1C(=O)[C@H](Cc1ccc(O)cc1)NC(=O)[C@H](CCCCN)NC(=O)[C@H](Cc1c[nH]c2ccccc12)NC(=O)[C@H](CO)NC(=O)CNC(=O)CNC(=O)[C@H](CC(=O)O)NC(=O)[C@@H](N)CCC(=O)O)C(=O)N[C@@H](CO)C(=O)NCC(=O)O,"Moesin (Homo sapiens, UniProt P26038)","binding, ITC",,,~260 nM
CC1=C[C@H](O/C=C2/C(=O)O[C@H]3c4c(ccc(C)c4C)[C@H](O)[C@@H]23)OC1=O (racemic),"RMS3 (Lathyrus oleraceus, UniProt A0A109QYD3)","binding, fluorescence",,,137000 nM
C#CC[C@H](NC(=O)CNC(=O)[C@H](CO)NC(=O)[C@H](CCCCN)NC(=O)[C@H](C)N(C)C(=O)[C@H](C)NC(=O)[C@@H](NC(=O)[C@@H](NC(=O)[C@H](CCCNC(=N)N)NC(=O)[C@H](Cc1c[nH]cn1)NC(=O)[C@@H]1CCCN1C(=O)[C@H](Cc1ccccc1)NC(=O)[C@@H](N)CCSC)C(C)C)[C@@H](C)O)C(=O)O,"Microtubule-associated protein 1 light chain 3 alpha (Homo sapiens, UniProt Q9H492)",fluorescence polarization,,,691 ± 252 nM
O=C(O)C1CC1C(=O)c1ccc(Cl)c(Cl)c1 (stereo not drawn),"Kynurenine 3-monooxygenase, residues 1-394 (Saccharomyces cerevisiae, UniProt P38169)","binding, flavin fluorescence",,wild type,138 ± 8 nM
CCCCCCCC[C@H]1NC(=O)[C@H](CCN)NC(=O)[C@@H](NC(=O)[C@H](CCN)NC(=O)[C@@H](NC(=O)[C@H](CCN)NC(=O)c2ccc(-c3ccccc3)cc2)[C@@H](C)O)CCNC(=O)[C@H]([C@@H](C)O)NC(=O)[C@H](CCN)NC(=O)[C@H](CCN)NC(=O)[C@H](CC(C)C)NC1=O,anti-polymyxin B mouse IgM mAb,SPR,,25 °C,940 nM
CC[C@H](C)[C@H](NC(=O)[C@@H](NC(=O)[C@@H]1CCCN1C(=O)[C@@H](NC(=O)[C@@H]1CCCN1C(=O)[C@H](CCCCN)NC(=O)[C@H](CCCCN)NC(=O)[C@H](CO)NC(=O)CNC(=O)CCOCCOCCOCCOCc1cn(CCCNC(=O)CCC2=[N+]3C(=Cc4c(C)cc(C)n4[B-]3(F)F)C=C2)nn1)C(C)C)[C@@H](C)CC)C(=O)N[C@@H](Cc1ccc(O)cc1)C(=O)N[C@H]1CSSC[C@@H](C(=O)N[C@@H](CCC(N)=O)C(=O)N[C@@H](CCCNC(=N)N)C(=O)N[C@@H](CCSC)C(=O)O)NC(=O)[C@H](CCCCN)NC(=O)CNC(=O)[C@H]([C@@H](C)O)NC(=O)[C@H](CCCNC(=N)N)NC(=O)[C@H](CCCNC(=N)N)NC(=O)[C@H](CC(N)=O)NC1=O,"lptA (Escherichia coli, UniProt P0ADV1)","binding, FP",,pH 8,12 nM
C[C@H](NC(=O)[C@H](Cc1c[nH]cn1)NC(=O)[C@H](CO)NC(=O)[C@H](CC(=O)O)NC(=O)CCCC[C@@H]1SC[C@@H]2NC(=O)N[C@@H]21)C(=O)N[C@@H](CCCCN)C(=O)N[C@@H](CCCNC(=N)N)C(=O)N[C@@H](Cc1c[nH]cn1)C(=O)N[C@@H](Cc1c[nH]cn1)C(=O)NCC(=O)N[C@@H](Cc1ccc(O)cc1)C(=O)N[C@@H](CCCCN)C(=O)N[C@@H](CCCNC(=N)N)C(=O)N[C@@H](CCCCN)C(=O)N[C@@H](Cc1ccccc1)C(=O)N[C@@H](Cc1c[nH]cn1)C(=O)N[C@@H](CCC(=O)O)C(=O)N[C@@H](CCCCN)C(=O)N[C@@H](Cc1c[nH]cn1)C(=O)N[C@@H](Cc1c[nH]cn1)C(=O)N[C@@H](CO)C(=O)N[C@@H](Cc1c[nH]cn1)C(=O)N[C@@H](CCCNC(=N)N)C(=O)NCC(=O)N[C@@H](Cc1ccc(O)cc1)C(=O)O,"Heat shock protein SSA2 (SSA2, Candida albicans, UniProt P46587)",FPLC gel filtration,,"pH 7.4, added: ATPγS 1 mM",1300 ± 400 nM
CC[C@H](C)[C@@H]1NC(=O)[C@H](Cc2ccccc2)NC(=O)[C@H](Cc2ccc(O)cc2)NC(=O)[C@H](Cc2c[nH]c3ccccc23)NC(=O)[C@H](Cc2c[nH]c3ccccc23)NC(=O)[C@H](C)NC(=O)[C@H](Cc2ccc(O)cc2)NC(=O)[C@H](CC(C)C)NC(=O)[C@H](Cc2c[nH]cn2)NC(=O)[C@H](CC(=O)O)NC(=O)[C@H](Cc2ccc(O)cc2)NC(=O)[C@H](C(C)C)NC(=O)[C@H](CC(C)C)NC(=O)[C@H](Cc2ccc(O)cc2)NC(=O)CSC[C@@H](C(=O)NCC(N)=O)NC(=O)[C@H](C)NC1=O,"Protein Wnt-3a, with afamin (Mus musculus, UniProt P27467)","binding, SPR single cycle kinetics",immobilised mWnt3a–human afamin complex,25 °C,110 nM
CC(C)P(=S)(NP(=S)(C(C)C)C(C)C)C(C)C,"Alpha-amylase (Bacillus subtilis, UniProt P00691)",fluorescence quenching,,310 K,916000 nM
CC[C@H](C)[C@H](NC(=O)[C@H](CO)NC(=O)[C@H](CO)NC(=O)[C@H](CCC(=O)O)NC(=O)[C@H](CCC(=O)O)NC(=O)[C@H](CCCCN)NC(=O)[C@H](CO)NC(=O)[C@@H](NC(=O)[C@H](CO)NC(=O)[C@H](CC(C)C)NC(=O)[C@H](Cc1ccccc1)NC(=O)[C@H](CCCNC(=N)N)NC(=O)[C@H](C)NC(=O)[C@H](Cc1ccccc1)NC(=O)[C@H](Cc1ccccc1)NC(=O)[C@@H]1CCCN1C(=O)[C@H](CC(C)C)NC(=O)[C@H](C)NC(=O)[C@H](CCCCN)NC(=O)CNC(=O)[C@H](CCC(N)=O)NC(=O)[C@H](CCC(N)=O)NC(=O)[C@H](CC(=O)O)NC(=O)[C@H](CC(N)=O)NC(=O)[C@@H]1CCCN1C(=O)[C@H](Cc1ccc(O)cc1)NC(=O)[C@H](C)NC(=O)[C@@H](N)CCSC)C(C)C)C(=O)N[C@@H](CCCCN)C(=O)N[C@@H](CO)C(=O)N1CCC[C@H]1C(=O)N[C@@H](CO)C(=O)N1CCC[C@H]1C(=O)N[C@@H](CC(=O)O)C(=O)N[C@@H](Cc1c[nH]cn1)C(=O)O,"uncharacterized protein (Microcystis aeruginosa MRC, UniProt B2G3D0)",isothermal titration calorimetry,,"pH 8.0, 25 °C",146 ± 52 nM
CSCC[C@H](NC(=O)[C@H](CC(N)=O)NC(=O)[C@H](CCC(=O)O)NC(=O)[C@@H](NC(=O)[C@H](CCCNC(=N)N)NC(=O)[C@H](CO)NC(=O)[C@H](Cc1ccc(O)cc1)NC(=O)[C@@H](N)Cc1c[nH]cn1)[C@@H](C)O)C(=O)NCC(=O)N[C@H](C(=O)N[C@@H](CO)C(=O)N[C@@H](CC(N)=O)C(=O)N[C@@H](C)C(=O)N[C@@H](CS)C(N)=O)[C@@H](C)O,Leishmania secreted acid phosphatase,surface plasmon resonance,,"pH 6.5, 25 °C",1.48 ± 0.1 nM

# A few entries again:
SMILES,target,assay,system,conditions,Kd
O=C(O)C1CC1C(=O)c1ccc(Cl)c(Cl)c1 (stereo not drawn),"Kynurenine 3-monooxygenase, residues 1-394 (Saccharomyces cerevisiae, UniProt P38169)","binding, flavin fluorescence",,wild type,138 ± 8 nM
